Published values pooled from the literature.
Lines come from different studies, so protocols differ. “And” joins repeats or separate records; there may be more than shown.
Spike glycoprotein: Spike glycoprotein (Severe acute respiratory syndrome coronavirus 2, UniProt P0DTC2)
rep main protease: Replicase polyprotein 1ab, main protease (rep, Severe acute respiratory syndrome coronavirus 2, UniProt P0DTD1)

| SMILES | target or system | test | system | setting | scale | endpoint | value |
| --- | --- | --- | --- | --- | --- | --- | --- |
| COc1ccc(/C=C/c2cc(O)cc(O)c2)cc1O | Spike glycoprotein | binding, BLI | – | – | – | koff | 0.0481 s⁻¹ |
| O=C(NC[C@H]1CN(C(=O)c2cc(O)ccc2F)CC[C@@]12CCOC2)c1ccc2n[nH]nc2c1 | rep main protease | enzyme activity, inhibitor | – | 5 µM | – | inhibition | 13.8% |
| CCc1c(C(=O)C(N)=O)c2c(OCC(=O)O)cccc2n1Cc1ccccc1 | Daboia russelii venom phospholipase A2 | enzyme activity, inhibitor | MH population | 0.001 µM, together with: NOB substrate | baseline: venom alone | remaining activity | 94.2% and 95% and 93% |
| CC[C@H](C)[C@H](NC(=O)[C@@H]1CCCN1C(=O)[C@H](C)NC(=O)[C@@H]1CSSC[C@@H]2NC(=O)[C@H](CC(=O)O)NC(=O)[C@H](CCCNC(=N)N)NC(=O)[C@H](CCC(=O)O)NC(=O)[C@H](CCCNC(=N)N)NC(=O)CNC(=O)[C@H](CC(=O)O)NC(=O)[C@@H]3CSSC[C@H](NC(=O)[C@H](CCC(=O)O)NC(=O)[C@H](CC(C)C)NC(=O)CNC(=O)[C@H](C)NC(=O)[C@H](CSSC[C@H](NC(=O)[C@H](Cc4ccccc4)NC(=O)[C@@H](N)CO)C(=O)N[C@@H](CC(C)C)C(=O)N[C@@H](C(C)C)C(=O)N[C@@H](CCCCN)C(=O)N[C@@H](Cc4c[nH]c5ccccc45)C(=O)N[C@@H](CCCCN)C(=O)N[C@@H](CCC(N)=O)C(=O)N3)NC2=O)C(=O)N[C@@H](Cc2c[nH]c3ccccc23)C(=O)N[C@@H](CCCCN)C(=O)N[C@@H](CCCNC(=N)N)C(=O)N[C@@H](CO)C(=O)NCC(=O)N[C@@H](CO)C(=O)N[C@@H](CCCCN)C(=O)N[C@@H](CO)C(=O)N[C@@H](CO)C(=O)N[C@@H](C(C)C)C(=O)N1)C(=O)N[C@H](C(=O)O)[C@@H](C)O | Acid-sensing ion channel 1 (ASIC1, Homo sapiens, UniProt P78348) | binding, SPR | – | pH 7.5 | – | koff | 0.182 s⁻¹ |
| Cc1ccc2cc(C(=O)N3CCCC4(CCN(c5cc6nncn6c(C)n5)CC4)C3)ccc2c1 | rep main protease | enzyme activity, inhibitor | – | 5 µM, run 2 | – | inhibition | 8.3% |
| Cn1cnc(Cn2c(=O)[nH]/c(=N\c3cc4cn(C)nc4cc3Cl)n(Cc3cc(F)c(F)cc3F)c2=O)n1 | – | – | human, mild renal impairment | oral, 375 mg, treatment-related decreased GFR, Severe severity | – | patients with adverse event | 0% |
| CCN(CC)Cc1ccc(Nc2ccnc3cc(Cl)ccc23)cc1O | SARS-CoV-2 | cytopathic effect | USA_WA1/2020 | round 2, 5-point | – | maximum response | 92.2% |
| Nc1ncnc2c([C@@H]3N[C@H](CO)[C@@H](O)[C@H]3O)c[nH]c12 | Venezuelan equine encephalitis virus | viral replication | HeLa, SH3 | 0.4 µM | – | inhibition | 0.8% |
| CC(C)=CCc1cc2c(cc1O)O[C@H](c1ccc(O)cc1)CC2=O | Spike glycoprotein | binding | – | – | – | kon | 1940 M⁻¹ s⁻¹ |
| Cc1nc(N)c2ncn(C3CCN(C(=O)c4ccc(S(=O)(=O)F)cc4)CC3)c2n1 | Calmodulin-sensitive adenylate cyclase (cya, Bacillus anthracis, UniProt P40136) | – | – | – | – | kinact | 0.00103 s⁻¹ |
| Cc1ccccc1C(=O)N[C@H](C)c1ccc2ccccc2c1 | rep main protease | viral replication, Gluc reporter | SARS-CoV-2 | 20 µM | – | inhibition | 1.09% |
| O=C(NC[C@H](NC(=O)c1cn[nH]c1-c1ccoc1)c1ccc2ccccc2c1)c1ccccc1 | rep main protease | enzyme activity, inhibitor | – | 5 µM, run 2 | – | inhibition | 13.9% |
| CN(C)c1ccc(C2Nc3ccc4ccccc4c3C3=C2C(=O)CC(C)(C)C3)cc1Br (stereo not drawn) | rep main protease | viral replication, mKate2 reporter | SARS-CoV-2 | 20 µM | – | inhibition | 0.195% |
| CC(C)(C)[C@H](NC(=O)C(F)(F)F)C(=O)N1C[C@H]2[C@@H]([C@H]1C(=O)N[C@H](C#N)C[C@@H]1CCNC1=O)C2(C)C | – | – | human, fasted | oral, 150 mg single dose, no ritonavir | – | AUC(0-t) | 2120 ng·h/mL |
| C[C@H](NC(=O)Cc1cc(F)cc(F)c1)C(=O)N[C@@H]1C(=O)N(C)c2ccccc2-c2ccccc21 | rep main protease | viral replication, mKate2 reporter | SARS-CoV-2 | 20 µM | – | inhibition | 0.0344% |
| CC(C)=CCc1c(O)ccc(C(=O)/C=C/c2ccc(O)cc2)c1O | Spike glycoprotein | binding, BLI | – | – | – | koff | 0.0339 s⁻¹ |
| COc1ccc(Nc2cc(C(=O)NCCCN3CCN(c4ccccc4F)CC3)c3ccccc3n2)c(OC)c1 | SARS-CoV-2 | cytopathic effect | USA_WA1/2020 | round 2, 5-point | – | efficacy | 40.4% |
| O=C(CC1CC(=O)NC(=O)C1)NC[C@@H]1CC2(CCC2)CN1C(=O)[C@@H]1CCCC12CCOCC2 | rep main protease | enzyme activity, inhibitor | – | 5 µM, run 1 | – | inhibition | 17.5% |
| CC[C@H](C)[C@H](NC(=O)[C@H](CC(C)C)NC(=O)[C@H](Cc1c[nH]c2ccccc12)NC(=O)[C@H](CCC(N)=O)NC(=O)[C@@H](NC(=O)[C@H](Cc1ccccc1)NC(=O)[C@H](C)NC(=O)[C@H](CCCCNC(=O)COCCOCCNC(=O)COCCOCCNC(=O)CC[C@H](NC(=O)CCCCCCCCCCCCCCCCCCC(=O)O)C(=O)O)NC(=O)[C@H](CCC(N)=O)NC(=O)[C@H](C)NC(=O)[C@@H](NC(=O)[C@H](CCCCN)NC(=O)[C@H](CC(=O)O)NC(=O)[C@H](CC(C)C)NC(=O)C(C)(C)NC(=O)[C@@H](NC(=O)[C@H](CO)NC(=O)[C@H](Cc1ccc(O)cc1)NC(=O)[C@H](CC(=O)O)NC(=O)[C@H](CO)NC(=O)[C@@H](NC(=O)[C@H](Cc1ccccc1)NC(=O)[C@@H](NC(=O)CNC(=O)[C@H](CCC(=O)O)NC(=O)C(C)(C)NC(=O)[C@@H](N)Cc1ccc(O)cc1)[C@@H](C)O)[C@@H](C)O)[C@@H](C)CC)[C@@H](C)CC)C(C)C)C(=O)N[C@@H](C)C(=O)NCC(=O)NCC(=O)N1CCC[C@H]1C(=O)N[C@@H](CO)C(=O)N[C@@H](CO)C(=O)NCC(=O)N[C@@H](C)C(=O)N1CCC[C@H]1C(=O)N1CCC[C@H]1C(=O)N1CCC[C@H]1C(=O)N[C@@H](CO)C(N)=O | – | – | human end-stage renal disease on dialysis, plasma | subcutaneous, 5 mg single, geometric mean | – | AUC(0-last) | 88500 ng·h/mL |
| CC(C)c1nc(CN(C)C(=O)N[C@H](C(=O)N[C@@H](Cc2ccccc2)C[C@H](O)[C@H](Cc2ccccc2)NC(=O)OCc2cncs2)C(C)C)cs1 | rep main protease | reporter gene (mKate2), inhibitor | – | 20 µM | – | inhibition | -0.327% |
| CC[C@H](C)[C@H](NC(=O)[C@H](CC(C)C)NC(=O)[C@H](Cc1c[nH]c2ccccc12)NC(=O)[C@H](CCC(N)=O)NC(=O)[C@@H](NC(=O)[C@H](Cc1ccccc1)NC(=O)[C@H](C)NC(=O)[C@H](CCCCNC(=O)COCCOCCNC(=O)COCCOCCNC(=O)CC[C@H](NC(=O)CCCCCCCCCCCCCCCCCCC(=O)O)C(=O)O)NC(=O)[C@H](CCC(N)=O)NC(=O)[C@H](C)NC(=O)[C@@H](NC(=O)[C@H](CCCCN)NC(=O)[C@H](CC(=O)O)NC(=O)[C@H](CC(C)C)NC(=O)C(C)(C)NC(=O)[C@@H](NC(=O)[C@H](CO)NC(=O)[C@H](Cc1ccc(O)cc1)NC(=O)[C@H](CC(=O)O)NC(=O)[C@H](CO)NC(=O)[C@@H](NC(=O)[C@H](Cc1ccccc1)NC(=O)[C@@H](NC(=O)CNC(=O)[C@H](CCC(=O)O)NC(=O)C(C)(C)NC(=O)[C@@H](N)Cc1ccc(O)cc1)[C@@H](C)O)[C@@H](C)O)[C@@H](C)CC)[C@@H](C)CC)C(C)C)C(=O)N[C@@H](C)C(=O)NCC(=O)NCC(=O)N1CCC[C@H]1C(=O)N[C@@H](CO)C(=O)N[C@@H](CO)C(=O)NCC(=O)N[C@@H](C)C(=O)N1CCC[C@H]1C(=O)N1CCC[C@H]1C(=O)N1CCC[C@H]1C(=O)N[C@@H](CO)C(N)=O | – | refers to: anti-drug antibodies | patients with type 2 diabetes | 0.5 mg, postbaseline, proof of concept, titre ≥1:20 | – | subjects with treatment-induced ADA | 0% |

Repeated from above:
| SMILES | target or system | test | system | setting | scale | endpoint | value |
| --- | --- | --- | --- | --- | --- | --- | --- |
| CC(C)=CCc1cc2c(cc1O)O[C@H](c1ccc(O)cc1)CC2=O | Spike glycoprotein | binding | – | – | – | kon | 1940 M⁻¹ s⁻¹ |
| Cc1nc(N)c2ncn(C3CCN(C(=O)c4ccc(S(=O)(=O)F)cc4)CC3)c2n1 | Calmodulin-sensitive adenylate cyclase (cya, Bacillus anthracis, UniProt P40136) | – | – | – | – | kinact | 0.00103 s⁻¹ |
